{"data": "Measured values collected from several papers", "gag-pol integrase": "Gag-Pol polyprotein, integrase (gag-pol, Human immunodeficiency virus type 1 group M subtype B, UniProt P04585)", "Genome polyprotein NS2B-NS3 protease": "Genome polyprotein, NS2B-NS3 protease (Dengue virus type 2, UniProt P14340)", "PPO3": "PPO3 (Agaricus bisporus, UniProt C7FF04)", "IDO1": "Indoleamine 2,3-dioxygenase 1 (IDO1, Homo sapiens, UniProt P14902)", "Aldo-keto reductase family 1 member B1": "Aldo-keto reductase family 1 member B1 (Bos taurus, UniProt P16116)", "SCN10A": "Sodium channel protein type 10 subunit alpha (SCN10A, Homo sapiens, UniProt Q9Y5Y9)", "note": "± gives the spread as reported.", "chain of UniProt C7FF04 (whole entry, looked up)": "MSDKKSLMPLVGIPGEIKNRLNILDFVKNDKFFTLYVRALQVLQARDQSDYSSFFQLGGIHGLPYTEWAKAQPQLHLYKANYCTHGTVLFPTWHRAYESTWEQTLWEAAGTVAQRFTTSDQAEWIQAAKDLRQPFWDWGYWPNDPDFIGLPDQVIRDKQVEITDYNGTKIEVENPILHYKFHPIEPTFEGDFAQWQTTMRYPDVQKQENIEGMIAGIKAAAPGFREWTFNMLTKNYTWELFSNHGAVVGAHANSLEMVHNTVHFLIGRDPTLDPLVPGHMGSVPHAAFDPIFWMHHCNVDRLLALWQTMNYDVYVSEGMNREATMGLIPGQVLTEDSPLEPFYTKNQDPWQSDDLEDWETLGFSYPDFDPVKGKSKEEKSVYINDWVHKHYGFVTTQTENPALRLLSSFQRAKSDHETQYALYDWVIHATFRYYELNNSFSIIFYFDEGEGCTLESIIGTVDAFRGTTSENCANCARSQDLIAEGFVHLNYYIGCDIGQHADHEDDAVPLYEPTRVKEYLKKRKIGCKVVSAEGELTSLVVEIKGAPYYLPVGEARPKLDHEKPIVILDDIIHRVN", "chain of UniProt Q9Y5Y9 (whole entry, looked up)": "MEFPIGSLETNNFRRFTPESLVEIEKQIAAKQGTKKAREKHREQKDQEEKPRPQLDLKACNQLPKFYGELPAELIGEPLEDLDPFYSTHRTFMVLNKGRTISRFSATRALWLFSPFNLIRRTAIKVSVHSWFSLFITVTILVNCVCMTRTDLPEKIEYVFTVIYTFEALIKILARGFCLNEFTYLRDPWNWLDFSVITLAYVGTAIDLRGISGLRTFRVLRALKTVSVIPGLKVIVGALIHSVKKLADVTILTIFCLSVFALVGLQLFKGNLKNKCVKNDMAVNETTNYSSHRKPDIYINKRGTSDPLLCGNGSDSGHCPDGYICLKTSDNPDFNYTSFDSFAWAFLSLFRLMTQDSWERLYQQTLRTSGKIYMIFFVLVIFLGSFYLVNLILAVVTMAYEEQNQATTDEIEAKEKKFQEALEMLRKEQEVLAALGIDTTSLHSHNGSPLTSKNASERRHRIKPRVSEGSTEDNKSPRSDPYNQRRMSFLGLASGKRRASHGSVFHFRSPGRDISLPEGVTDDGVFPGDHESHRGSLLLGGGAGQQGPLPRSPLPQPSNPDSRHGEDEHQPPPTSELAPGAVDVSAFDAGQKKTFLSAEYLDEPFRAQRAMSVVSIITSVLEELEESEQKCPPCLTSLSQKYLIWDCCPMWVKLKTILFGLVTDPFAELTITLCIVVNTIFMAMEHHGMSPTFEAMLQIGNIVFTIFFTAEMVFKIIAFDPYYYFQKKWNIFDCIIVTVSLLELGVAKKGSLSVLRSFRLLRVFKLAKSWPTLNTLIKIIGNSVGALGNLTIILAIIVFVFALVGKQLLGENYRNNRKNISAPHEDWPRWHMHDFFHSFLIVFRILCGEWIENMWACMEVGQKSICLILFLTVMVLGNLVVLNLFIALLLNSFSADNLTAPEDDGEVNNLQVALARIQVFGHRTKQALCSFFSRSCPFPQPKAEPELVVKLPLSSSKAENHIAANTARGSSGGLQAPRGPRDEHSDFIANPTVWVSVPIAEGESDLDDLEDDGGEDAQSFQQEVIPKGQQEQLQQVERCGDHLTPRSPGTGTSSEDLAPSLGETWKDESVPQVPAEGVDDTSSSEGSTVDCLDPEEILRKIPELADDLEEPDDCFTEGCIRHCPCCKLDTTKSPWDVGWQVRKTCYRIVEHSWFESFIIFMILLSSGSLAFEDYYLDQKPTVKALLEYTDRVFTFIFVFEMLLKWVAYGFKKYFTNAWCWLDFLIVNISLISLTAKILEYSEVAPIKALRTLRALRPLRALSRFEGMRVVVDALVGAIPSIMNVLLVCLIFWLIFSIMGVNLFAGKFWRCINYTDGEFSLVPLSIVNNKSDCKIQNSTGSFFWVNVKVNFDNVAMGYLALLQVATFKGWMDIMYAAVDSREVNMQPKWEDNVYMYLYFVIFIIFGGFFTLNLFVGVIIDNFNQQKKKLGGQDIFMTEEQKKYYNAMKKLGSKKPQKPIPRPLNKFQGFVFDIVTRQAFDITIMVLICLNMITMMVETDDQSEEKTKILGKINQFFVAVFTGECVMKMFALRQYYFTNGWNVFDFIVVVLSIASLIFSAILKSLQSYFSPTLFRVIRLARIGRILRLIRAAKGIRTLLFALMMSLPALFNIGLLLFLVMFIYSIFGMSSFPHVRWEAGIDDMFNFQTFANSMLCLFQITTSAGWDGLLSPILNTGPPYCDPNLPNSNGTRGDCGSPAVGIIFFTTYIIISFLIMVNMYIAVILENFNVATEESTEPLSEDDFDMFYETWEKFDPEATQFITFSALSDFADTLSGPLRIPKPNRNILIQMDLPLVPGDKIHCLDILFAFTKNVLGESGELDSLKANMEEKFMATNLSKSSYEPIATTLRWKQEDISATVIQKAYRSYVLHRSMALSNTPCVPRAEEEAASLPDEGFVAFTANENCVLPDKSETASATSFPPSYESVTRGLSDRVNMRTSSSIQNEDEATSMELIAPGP", "chain of UniProt P14902 (whole entry, looked up)": "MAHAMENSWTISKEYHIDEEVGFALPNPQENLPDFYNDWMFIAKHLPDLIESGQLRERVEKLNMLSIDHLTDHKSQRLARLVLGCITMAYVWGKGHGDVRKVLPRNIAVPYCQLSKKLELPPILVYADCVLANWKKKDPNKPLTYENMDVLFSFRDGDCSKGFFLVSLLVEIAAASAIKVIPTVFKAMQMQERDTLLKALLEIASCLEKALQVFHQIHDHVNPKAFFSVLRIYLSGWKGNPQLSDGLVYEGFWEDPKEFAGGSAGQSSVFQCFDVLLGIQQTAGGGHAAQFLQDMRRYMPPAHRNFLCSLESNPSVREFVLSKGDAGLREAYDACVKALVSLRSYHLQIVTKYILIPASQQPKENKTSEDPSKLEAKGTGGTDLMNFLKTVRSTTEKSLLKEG", "chain of UniProt P49840 (whole entry, looked up)": "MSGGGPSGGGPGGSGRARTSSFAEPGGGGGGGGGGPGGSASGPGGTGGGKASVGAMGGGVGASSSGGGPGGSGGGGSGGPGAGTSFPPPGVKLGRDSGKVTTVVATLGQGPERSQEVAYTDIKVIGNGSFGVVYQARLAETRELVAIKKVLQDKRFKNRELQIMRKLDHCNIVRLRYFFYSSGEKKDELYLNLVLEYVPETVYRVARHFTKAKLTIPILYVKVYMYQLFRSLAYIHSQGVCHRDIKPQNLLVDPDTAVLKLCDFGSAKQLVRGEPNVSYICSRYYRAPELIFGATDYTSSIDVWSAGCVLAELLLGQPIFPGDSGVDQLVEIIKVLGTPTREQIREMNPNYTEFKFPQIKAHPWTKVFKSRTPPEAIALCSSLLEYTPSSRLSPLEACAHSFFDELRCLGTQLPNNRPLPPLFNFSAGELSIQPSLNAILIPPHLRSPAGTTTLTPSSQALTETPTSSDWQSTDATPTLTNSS", "chain of UniProt P23141 (whole entry, looked up)": "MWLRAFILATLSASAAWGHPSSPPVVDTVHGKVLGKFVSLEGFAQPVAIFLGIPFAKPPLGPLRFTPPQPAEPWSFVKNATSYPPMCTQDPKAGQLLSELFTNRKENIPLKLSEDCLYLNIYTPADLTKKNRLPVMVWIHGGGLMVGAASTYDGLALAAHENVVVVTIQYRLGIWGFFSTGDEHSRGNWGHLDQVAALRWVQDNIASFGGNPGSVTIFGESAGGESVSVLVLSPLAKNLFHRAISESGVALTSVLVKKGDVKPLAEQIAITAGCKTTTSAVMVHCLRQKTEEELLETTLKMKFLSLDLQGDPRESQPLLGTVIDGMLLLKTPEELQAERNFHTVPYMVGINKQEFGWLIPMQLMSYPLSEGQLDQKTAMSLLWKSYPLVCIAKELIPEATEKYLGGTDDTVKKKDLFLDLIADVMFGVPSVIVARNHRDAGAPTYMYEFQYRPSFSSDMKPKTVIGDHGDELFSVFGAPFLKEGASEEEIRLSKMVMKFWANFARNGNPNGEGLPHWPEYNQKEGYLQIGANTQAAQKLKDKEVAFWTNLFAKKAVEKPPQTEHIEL", "chain of UniProt P34152 (whole entry, looked up)": "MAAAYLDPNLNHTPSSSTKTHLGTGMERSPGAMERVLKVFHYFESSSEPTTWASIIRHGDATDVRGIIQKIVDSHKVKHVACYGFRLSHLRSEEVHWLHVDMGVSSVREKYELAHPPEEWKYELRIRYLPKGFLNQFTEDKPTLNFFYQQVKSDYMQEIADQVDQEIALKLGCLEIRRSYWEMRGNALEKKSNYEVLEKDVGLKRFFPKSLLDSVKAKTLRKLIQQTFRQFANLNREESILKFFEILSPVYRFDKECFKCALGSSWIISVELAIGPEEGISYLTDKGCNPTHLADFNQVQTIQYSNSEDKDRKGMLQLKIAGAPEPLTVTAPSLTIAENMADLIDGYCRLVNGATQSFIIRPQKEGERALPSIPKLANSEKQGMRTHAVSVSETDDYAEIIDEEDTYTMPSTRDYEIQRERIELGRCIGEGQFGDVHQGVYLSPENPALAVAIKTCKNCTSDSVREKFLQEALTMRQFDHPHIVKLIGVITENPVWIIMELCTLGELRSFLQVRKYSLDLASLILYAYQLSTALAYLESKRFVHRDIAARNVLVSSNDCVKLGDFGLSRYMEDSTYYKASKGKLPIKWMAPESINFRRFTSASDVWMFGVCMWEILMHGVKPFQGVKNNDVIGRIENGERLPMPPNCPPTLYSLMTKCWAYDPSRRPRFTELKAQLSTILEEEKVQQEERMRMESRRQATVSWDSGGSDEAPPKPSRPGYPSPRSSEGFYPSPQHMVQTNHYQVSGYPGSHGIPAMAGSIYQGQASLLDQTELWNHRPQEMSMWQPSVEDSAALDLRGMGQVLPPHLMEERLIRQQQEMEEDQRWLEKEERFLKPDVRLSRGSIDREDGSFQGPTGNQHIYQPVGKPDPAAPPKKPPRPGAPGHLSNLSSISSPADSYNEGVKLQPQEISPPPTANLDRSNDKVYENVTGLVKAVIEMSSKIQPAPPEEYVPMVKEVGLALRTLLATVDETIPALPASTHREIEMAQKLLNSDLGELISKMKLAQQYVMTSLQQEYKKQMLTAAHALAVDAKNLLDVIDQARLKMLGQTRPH"}
{"SMILES": "Cn1cc(-c2ccc3c(c2)OCO3)c2ccc(Cl)nc21", "target": "gag-pol integrase", "assay": "strand transfer", "system": "wild type", "setting": "10 µM", "inhibition": "54%"}
{"SMILES": "COc1ccc(C(=O)CN2CC(=Cc3ccccc3Cl)C(=O)C(=Cc3ccccc3Cl)C2)cc1", "target": "Genome polyprotein NS2B-NS3 protease", "assay": "protease activity", "system": "dengue virus 2", "setting": "50 µM", "inhibition": "< 10%"}
{"SMILES": "O=C1/C(=C/c2ccc(F)cc2F)OC(=S)N1c1ccccc1", "target": "PPO3", "assay": "enzyme activity, inhibitor", "setting": "25 µM, with: L-tyrosine", "inhibition": "< 0%"}
{"SMILES": "CSCC[C@H](NC(=O)[C@@H](NC(=O)[C@H](CCCNC(=N)N)NC(=O)[C@H](C)N)[C@@H](C)O)C(=O)N[C@H]1CCCCNC(=O)CC[C@@H](C(=O)N[C@H](C(=O)NCC(=O)NCC(=O)N[C@@H](CCCCN)C(=O)N[C@@H](C)C(=O)N2CCC[C@H]2C(=O)N[C@@H](CCCNC(=N)N)C(=O)N[C@@H](CCCCN)C(=O)N[C@@H](CCC(N)=O)C(=O)N[C@@H](CC(C)C)C(=O)N[C@@H](C)C(=O)O)[C@@H](C)O)NC(=O)[C@H](C)NC(=O)[C@H](CCCNC(=N)N)NC(=O)[C@H](C)NC(=O)[C@H]([C@@H](C)O)NC1=O", "target": "Lysine-specific histone demethylase 1A, with CoREST (KDM1A, Homo sapiens, UniProt O60341)", "assay": "demethylase activity, fluorescence", "setting": "500 nM", "inhibition": "0%"}
{"SMILES": "COc1ccc(-c2ccc(F)c(C(=O)NCc3nnc4ccc5ccccc5n34)c2)cc1", "target": "IDO1", "assay": "kynurenine production, inhibitor, refers to: L-kynurenine", "system": "A-375", "setting": "10 µM, 48 h, with: IFN-γ", "inhibition": "> 50%"}
{"SMILES": "C/C(=N/N=c1/scc(-c2ccc(Br)cc2)n1-c1ccccc1C)c1ccc2c(c1)NC(=O)CO2", "target": "Aldo-keto reductase family 1 member B1", "assay": "enzyme activity, inhibitor, absorbance", "setting": "1 mM", "inhibition": "19.5%"}
{"SMILES": "CCCCC/C=C\\C/C=C\\C/C=C\\C/C=C\\CCCC(=O)O", "target": "CES1 (Homo sapiens, UniProt P23141)", "assay": "trans-permethrin hydrolysis, inhibitor, HPLC-UV", "setting": "20 µM, no albumin, with: trans-permethrin 50 µM", "inhibition": "~93%"}
{"SMILES": "CCC(NC(C)C)C(O)c1ccc(O)c(O)c1.CS(=O)(=O)O (centres unmarked)", "target": "SCN10A", "assay": "sodium influx, inhibitor, FLIPR", "system": "HEK293", "setting": "10 µM, with: deltamethrin 10 µM", "inhibition": "98.5%"}
{"SMILES": "C/C(=N/N=c1/scc(-c2ccc([N+](=O)[O-])cc2)n1-c1ccc(F)cc1)c1ccc2c(c1)NC(=O)CO2", "target": "Aldo-keto reductase family 1 member B1", "assay": "enzyme activity, inhibitor, absorbance", "setting": "1 mM", "inhibition": "31.7%"}
{"SMILES": "O=C(NCc1nnc2ccc(C(F)(F)F)cn12)c1cc(-c2ccc(F)cc2)ccc1F", "target": "IDO1", "assay": "kynurenine production, inhibitor, refers to: L-kynurenine", "system": "A-375", "setting": "10 µM, 48 h, with: IFN-γ", "inhibition": "29 ± 2%"}
{"SMILES": "O=C(N[C@@H](Cn1ccnc1)c1ccc(-c2ccc(F)cc2)cc1Cl)c1ccc(-c2nnc(-c3ccccc3)o2)cc1", "target": "Lanosterol 14-alpha-demethylase (Trypanosoma brucei brucei, UniProt Q385E8)", "assay": "enzyme activity, inhibitor", "setting": "equimolar to enzyme, 1 h, Trypanosoma brucei CYP51, with: obtusifoliol 50 µM", "inhibition": "inhibited"}
{"SMILES": "O=C(NCc1nnc2ccc(C(F)(F)F)cn12)c1cccc2cn[nH]c12", "target": "IDO1", "assay": "kynurenine production, inhibitor, refers to: L-kynurenine", "system": "A-375", "setting": "10 µM, 48 h, with: IFN-γ", "inhibition": "35 ± 6%"}
{"SMILES": "O=C1/C(=C/c2ccc(O)cc2O)OC(=S)N1c1ccccc1", "target": "PPO3", "assay": "enzyme activity, inhibitor", "setting": "25 µM, with: L-tyrosine", "inhibition": "78%"}
{"SMILES": "Cc1ccnc2c1NC(=O)c1cccnc1N2C1CC1", "target": "Gag-Pol polyprotein, reverse transcriptase (gag-pol, Human immunodeficiency virus type 1 group M subtype B, UniProt P04585)", "assay": "enzyme activity, inhibitor, ELISA", "setting": "10 µM", "inhibition": "> 97%"}
{"SMILES": "CC(C)(C)c1cnc(CSc2cnc(NC(=O)C3CCN(CC(=O)NCCOCCOCCOCCNc4cccc5c4C(=O)N(C4CCC(=O)NC4=O)C5=O)CC3)s2)o1 (centres unmarked)", "target": "GSK3A (Homo sapiens, UniProt P49840)", "assay": "probe labeling, KiNativ live-cell profiling", "system": "MOLT-4 CRBN knockout", "setting": "0.25 µM", "inhibition": "33.8%"}
{"SMILES": "CC(C)NCC(O)c1ccc(O)c(O)c1.Cl (single isomer, unassigned; (-))", "target": "SCN10A", "assay": "sodium influx, inhibitor, FLIPR", "system": "HEK293", "setting": "10 µM, with: deltamethrin 10 µM", "inhibition": "99.2%"}
{"SMILES": "COc1cccc(CNC(=O)c2cnn(Cc3ccc(Cn4ccccc4=O)cc3)c2)c1", "target": "Plasma kallikrein (KLKB1, Homo sapiens, UniProt P03952)", "assay": "enzyme activity, inhibitor", "setting": "0.1 µM", "inhibition": "> 30%"}
{"SMILES": "C/C(=N/N=c1/scc(-c2ccc([N+](=O)[O-])cc2)n1-c1c(C)cccc1C)c1ccc2c(c1)NC(=O)CO2", "target": "Aldo-keto reductase family 1 member B1", "assay": "enzyme activity, inhibitor, absorbance", "setting": "1 mM", "inhibition": "18%"}
{"SMILES": "Cn1cc(-c2ccc3c(c2)OCO3)c2ccc(-c3ccncc3)nc21", "target": "gag-pol integrase", "assay": "strand transfer", "system": "wild type", "setting": "10 µM", "inhibition": "71.3%"}
{"SMILES": "O=C(NCc1nnc2ccc3ccccc3n12)c1ccc(O)c(Br)c1", "target": "IDO1", "assay": "kynurenine production, inhibitor, refers to: L-kynurenine", "system": "A-375", "setting": "10 µM, 48 h, with: IFN-γ", "inhibition": "> 50%"}
{"SMILES": "C/C(=N/N=c1/scc(-c2ccc(Br)cc2)n1-c1ccccc1)c1ccc2c(c1)NC(=O)CO2", "target": "Aldo-keto reductase family 1 member B1", "assay": "enzyme activity, inhibitor, absorbance", "setting": "1 mM", "inhibition": "13.4%"}
{"SMILES": "CC(C)(C)c1cc(/C=C2\\OC(=S)N(c3ccccc3)C2=O)cc(C(C)(C)C)c1O", "target": "PPO3", "assay": "enzyme activity, inhibitor", "setting": "25 µM", "inhibition": "8.53%"}
{"SMILES": "CC(C)NCC(O)c1cc(O)cc(O)c1.CC(C)NCC(O)c1cc(O)cc(O)c1.O=S(=O)(O)O (centres unmarked)", "target": "SCN10A", "assay": "sodium influx, inhibitor, FLIPR", "system": "HEK293", "setting": "10 µM, with: deltamethrin 10 µM", "inhibition": "78.5%"}
{"SMILES": "O=C1C(=Cc2ccc(F)cc2)CN(CC(=O)c2ccc(F)cc2)CC1=Cc1ccc(F)cc1", "target": "Genome polyprotein NS2B-NS3 protease", "assay": "protease activity", "system": "dengue virus 2", "setting": "50 µM", "inhibition": "< 10%"}
{"SMILES": "O=C(O[C@@H]1Cc2c(O)cc(O)cc2O[C@@H]1c1ccc(O)c(O)c1)c1cc(O)c(O)c(O)c1", "target": "Myocilin, OLF domain (Homo sapiens, UniProt Q99972)", "assay": "amyloid fibrillation, thioflavin T", "setting": "75 µM, pH 7.2, 37 °C, with: olfactomedin domain 15 µM", "inhibition": "~65%"}
{"SMILES": "CNC(=O)c1ccccc1Nc1cc(Nc2ccc(N3CCOCC3)cc2OC)ncc1C(F)(F)F", "target": "Focal adhesion kinase 1, phosphorylated Tyr397 (Ptk2, Mus musculus, UniProt P34152)", "assay": "Tyr397 phosphorylation, immunoblot", "system": "BALB/c mouse, 4T1 tumour, subcutaneous tumour", "setting": "i.p., 100 mg/kg single, 12 h", "inhibition": "> 60%"}
{"SMILES": "O=C1/C(=C/c2ccc(O)cc2)OC(=S)N1c1ccccc1", "target": "PPO3", "assay": "enzyme activity, inhibitor", "setting": "25 µM", "inhibition": "10.2%"}
{"SMILES": "COc1cc(C)c(C(=O)NCc2nnc3ccc(C(F)(F)F)cn23)c(C)c1", "target": "IDO1", "assay": "kynurenine production, inhibitor, refers to: L-kynurenine", "system": "A-375", "setting": "10 µM, 48 h, with: IFN-γ", "inhibition": "43 ± 10%"}
{"SMILES": "CC(C)(C)NCC(O)c1cc(O)cc(O)c1.CC(C)(C)NCC(O)c1cc(O)cc(O)c1.O=S(=O)(O)O (centres unmarked)", "target": "SCN10A", "assay": "sodium influx, inhibitor, FLIPR", "system": "HEK293", "setting": "10 µM, with: deltamethrin 10 µM", "inhibition": "90.6%"}
{"note": "A few entries again:"}
{"SMILES": "CCCCC/C=C\\C/C=C\\C/C=C\\C/C=C\\CCCC(=O)O", "target": "CES1 (Homo sapiens, UniProt P23141)", "assay": "trans-permethrin hydrolysis, inhibitor, HPLC-UV", "setting": "20 µM, no albumin, with: trans-permethrin 50 µM", "inhibition": "~93%"}
{"SMILES": "Cc1ccnc2c1NC(=O)c1cccnc1N2C1CC1", "target": "Gag-Pol polyprotein, reverse transcriptase (gag-pol, Human immunodeficiency virus type 1 group M subtype B, UniProt P04585)", "assay": "enzyme activity, inhibitor, ELISA", "setting": "10 µM", "inhibition": "> 97%"}
{"SMILES": "Cn1cc(-c2ccc3c(c2)OCO3)c2ccc(-c3ccncc3)nc21", "target": "gag-pol integrase", "assay": "strand transfer", "system": "wild type", "setting": "10 µM", "inhibition": "71.3%"}
{"SMILES": "CC(C)(C)c1cc(/C=C2\\OC(=S)N(c3ccccc3)C2=O)cc(C(C)(C)C)c1O", "target": "PPO3", "assay": "enzyme activity, inhibitor", "setting": "25 µM", "inhibition": "8.53%"}
{"SMILES": "CC(C)NCC(O)c1cc(O)cc(O)c1.CC(C)NCC(O)c1cc(O)cc(O)c1.O=S(=O)(O)O (centres unmarked)", "target": "SCN10A", "assay": "sodium influx, inhibitor, FLIPR", "system": "HEK293", "setting": "10 µM, with: deltamethrin 10 µM", "inhibition": "78.5%"}
